Published values pooled from the literature.
Parts stem from different laboratories: compare values within a part only. Values joined by “and” are separate records of one study, mostly repeats; a detail may differ.
Chain of UniProt Q8IVH8 (whole entry, looked up): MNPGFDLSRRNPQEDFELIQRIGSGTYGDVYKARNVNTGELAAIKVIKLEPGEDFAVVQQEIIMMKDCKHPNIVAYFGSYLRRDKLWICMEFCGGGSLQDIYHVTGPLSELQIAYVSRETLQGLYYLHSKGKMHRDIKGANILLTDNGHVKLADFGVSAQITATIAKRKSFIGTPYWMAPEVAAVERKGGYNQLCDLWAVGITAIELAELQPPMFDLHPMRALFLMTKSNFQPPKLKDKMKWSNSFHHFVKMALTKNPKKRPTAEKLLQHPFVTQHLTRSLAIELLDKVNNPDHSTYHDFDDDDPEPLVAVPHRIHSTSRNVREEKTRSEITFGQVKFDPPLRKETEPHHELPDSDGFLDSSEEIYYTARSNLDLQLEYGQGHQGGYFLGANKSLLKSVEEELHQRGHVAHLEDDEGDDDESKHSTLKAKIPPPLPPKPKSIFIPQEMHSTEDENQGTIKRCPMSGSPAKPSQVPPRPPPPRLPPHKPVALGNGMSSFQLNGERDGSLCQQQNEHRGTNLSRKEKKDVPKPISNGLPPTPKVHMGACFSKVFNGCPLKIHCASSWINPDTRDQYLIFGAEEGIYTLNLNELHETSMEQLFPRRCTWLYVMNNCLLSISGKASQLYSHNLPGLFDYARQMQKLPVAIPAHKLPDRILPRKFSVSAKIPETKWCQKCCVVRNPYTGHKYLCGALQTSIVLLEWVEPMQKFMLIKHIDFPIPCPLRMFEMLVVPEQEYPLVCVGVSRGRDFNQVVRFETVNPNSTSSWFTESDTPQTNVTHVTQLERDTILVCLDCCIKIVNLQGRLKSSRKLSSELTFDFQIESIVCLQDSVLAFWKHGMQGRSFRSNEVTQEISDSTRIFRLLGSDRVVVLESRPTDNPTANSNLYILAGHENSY
Chain of UniProt P29322 (whole entry, looked up): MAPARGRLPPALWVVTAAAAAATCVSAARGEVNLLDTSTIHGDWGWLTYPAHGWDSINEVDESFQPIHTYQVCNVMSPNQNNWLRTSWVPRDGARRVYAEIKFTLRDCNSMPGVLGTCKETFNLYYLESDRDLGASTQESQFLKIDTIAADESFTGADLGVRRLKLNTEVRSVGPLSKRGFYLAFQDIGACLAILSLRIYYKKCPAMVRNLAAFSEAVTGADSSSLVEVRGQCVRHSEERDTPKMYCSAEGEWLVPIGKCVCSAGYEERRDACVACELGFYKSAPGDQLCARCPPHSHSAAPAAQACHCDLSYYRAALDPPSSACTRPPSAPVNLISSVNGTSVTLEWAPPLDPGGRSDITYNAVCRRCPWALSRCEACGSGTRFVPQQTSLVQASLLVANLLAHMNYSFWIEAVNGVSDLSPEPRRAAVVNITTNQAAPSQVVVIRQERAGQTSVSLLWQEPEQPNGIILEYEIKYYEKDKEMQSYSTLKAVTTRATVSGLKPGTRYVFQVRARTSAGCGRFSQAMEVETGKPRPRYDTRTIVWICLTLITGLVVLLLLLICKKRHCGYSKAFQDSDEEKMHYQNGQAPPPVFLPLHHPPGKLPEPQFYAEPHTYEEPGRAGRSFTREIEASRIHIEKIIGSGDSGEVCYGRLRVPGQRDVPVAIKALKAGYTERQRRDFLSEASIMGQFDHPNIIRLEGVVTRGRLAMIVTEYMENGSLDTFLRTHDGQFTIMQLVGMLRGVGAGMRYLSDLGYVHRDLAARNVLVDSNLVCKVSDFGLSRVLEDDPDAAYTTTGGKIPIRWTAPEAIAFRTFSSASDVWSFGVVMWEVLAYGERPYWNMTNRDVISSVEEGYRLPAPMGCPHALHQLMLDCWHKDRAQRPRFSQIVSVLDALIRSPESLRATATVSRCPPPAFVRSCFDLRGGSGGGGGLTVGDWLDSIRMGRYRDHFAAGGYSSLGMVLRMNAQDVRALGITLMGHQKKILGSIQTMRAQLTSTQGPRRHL
Chain of UniProt Q6P2M8 (whole entry, looked up): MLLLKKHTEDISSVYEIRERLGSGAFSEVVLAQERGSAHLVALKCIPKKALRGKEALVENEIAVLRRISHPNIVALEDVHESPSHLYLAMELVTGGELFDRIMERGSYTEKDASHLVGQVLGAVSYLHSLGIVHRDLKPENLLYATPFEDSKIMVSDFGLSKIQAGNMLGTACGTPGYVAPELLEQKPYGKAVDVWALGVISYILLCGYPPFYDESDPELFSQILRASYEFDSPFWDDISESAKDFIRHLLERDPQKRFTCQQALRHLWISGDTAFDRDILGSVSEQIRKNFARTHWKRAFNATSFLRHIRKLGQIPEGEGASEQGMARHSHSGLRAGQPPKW
Chain of UniProt P42336 (whole entry, unmodified, looked up): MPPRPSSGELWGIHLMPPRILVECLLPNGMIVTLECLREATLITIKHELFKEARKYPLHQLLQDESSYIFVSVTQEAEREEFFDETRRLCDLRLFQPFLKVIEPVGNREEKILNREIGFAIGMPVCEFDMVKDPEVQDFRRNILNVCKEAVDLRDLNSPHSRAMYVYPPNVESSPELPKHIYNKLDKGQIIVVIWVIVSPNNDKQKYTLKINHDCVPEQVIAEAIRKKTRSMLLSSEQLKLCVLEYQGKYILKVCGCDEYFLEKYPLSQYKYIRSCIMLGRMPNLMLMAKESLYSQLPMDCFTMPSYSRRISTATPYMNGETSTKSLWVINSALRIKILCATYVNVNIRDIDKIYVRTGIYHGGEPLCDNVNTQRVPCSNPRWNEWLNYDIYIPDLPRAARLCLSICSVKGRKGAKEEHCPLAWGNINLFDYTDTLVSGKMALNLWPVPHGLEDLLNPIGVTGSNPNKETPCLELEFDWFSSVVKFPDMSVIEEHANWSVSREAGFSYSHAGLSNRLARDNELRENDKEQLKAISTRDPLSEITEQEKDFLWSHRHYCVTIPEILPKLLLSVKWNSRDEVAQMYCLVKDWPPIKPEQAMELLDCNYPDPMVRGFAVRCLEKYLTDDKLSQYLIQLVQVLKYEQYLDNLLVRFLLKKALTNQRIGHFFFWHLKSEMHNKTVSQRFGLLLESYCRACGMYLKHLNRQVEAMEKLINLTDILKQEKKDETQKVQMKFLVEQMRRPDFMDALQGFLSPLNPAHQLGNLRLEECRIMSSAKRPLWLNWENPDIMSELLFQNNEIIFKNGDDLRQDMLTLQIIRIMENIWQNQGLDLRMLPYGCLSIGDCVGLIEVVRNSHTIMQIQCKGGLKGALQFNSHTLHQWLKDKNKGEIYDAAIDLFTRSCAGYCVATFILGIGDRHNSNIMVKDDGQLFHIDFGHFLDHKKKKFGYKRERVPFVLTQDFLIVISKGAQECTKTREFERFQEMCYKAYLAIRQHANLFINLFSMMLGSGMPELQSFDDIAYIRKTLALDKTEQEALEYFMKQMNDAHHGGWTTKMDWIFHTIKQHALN

Sample 1
SMILES: CC(C)S(=O)(=O)c1ccc2nccc(Nc3ccc4sc(C5CCCC5)nc4c3)c2c1
Read-out: enzyme activity
Action: inhibitor
Concentration: 1 µM
target	activity vs control [%]
SIK2 (Homo sapiens, UniProt Q9H0K1)	94
MTOR (Homo sapiens, UniProt P42345)	94.5
EPHB1 (Homo sapiens, UniProt P54762)	99
FGR (Homo sapiens, UniProt P09769)	90.5
KIT (Homo sapiens, UniProt P10721)	80
MAP4K3 (Homo sapiens, UniProt Q8IVH8)	95
EPHA8 (Homo sapiens, UniProt P29322)	100
PRKD2 (Homo sapiens, UniProt Q9BZL6)	100

Sample 2
Target: Serine/threonine-protein kinase PAK 4 (PAK4, Homo sapiens, UniProt O96013)
Chain of UniProt O96013 (whole entry, looked up): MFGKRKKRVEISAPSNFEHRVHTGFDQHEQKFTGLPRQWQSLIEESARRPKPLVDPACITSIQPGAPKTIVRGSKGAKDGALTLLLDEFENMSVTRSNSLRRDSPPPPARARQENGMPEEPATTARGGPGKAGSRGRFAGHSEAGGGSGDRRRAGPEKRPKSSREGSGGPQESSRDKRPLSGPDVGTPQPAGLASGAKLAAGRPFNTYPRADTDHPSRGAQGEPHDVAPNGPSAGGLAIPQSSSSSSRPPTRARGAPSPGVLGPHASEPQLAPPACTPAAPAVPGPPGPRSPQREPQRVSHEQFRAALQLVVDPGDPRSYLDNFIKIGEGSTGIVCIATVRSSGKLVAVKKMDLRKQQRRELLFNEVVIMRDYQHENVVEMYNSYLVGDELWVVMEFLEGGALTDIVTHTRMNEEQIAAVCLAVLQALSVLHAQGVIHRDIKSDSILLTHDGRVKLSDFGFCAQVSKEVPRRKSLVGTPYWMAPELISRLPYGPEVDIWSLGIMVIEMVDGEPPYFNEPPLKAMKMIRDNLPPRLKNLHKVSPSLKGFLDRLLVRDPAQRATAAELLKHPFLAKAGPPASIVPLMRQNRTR
Read-out: enzyme activity
Action: inhibitor
Concentration: 0.5 µM
Baseline: control
SMILES	remaining activity [%]
O=C1NC(=O)c2c1c1c3ccccc3[nH]c1n1cncc21	97.1
O=C(c1cc2cc(O)ccc2[nH]1)c1cc2cc(O)ccc2[nH]1	111
Cc1ccc(S(=O)(=O)/C=C/C#N)cc1	91.9
Oc1cccc(-c2nc(N3CCOCC3)c3oc4ncccc4c3n2)c1	90.7
CCCNC(=O)Nc1ccc(Oc2ncnc3cc(OC)c(OC)cc23)cc1Cl	95.7
O=c1cc(N2CCOCC2)oc2c(-c3ccccc3)cccc12	92.8
O=C1Cc2c([nH]c3ccc(Br)cc23)-c2ccccc2N1	92.2
COc1ccc2c(c1)c(C1=C(c3c[nH]c4ccccc34)C(=O)NC1=O)cn2CCCN(C)C	94.8
O=C1Nc2ccccc2/C1=C\c1c(Cl)[nH]c2ccccc12	104
CN1CCN(c2ccc3nc(-c4c(N)c5c(F)cccc5[nH]c4=O)[nH]c3c2)CC1	93
O=C1Nc2ccc(Br)cc2/C1=C/c1cc2c([nH]1)CCCC2	76.8
Cc1cc(Nc2cc(N3CCN(C)CC3)nc(Sc3ccc(NC(=O)C4CC4)cc3)n2)[nH]n1	85.4
COc1ccc(COc2ccc(Cc3cnc(N)nc3N)cc2OC)cc1	101
O=Nc1c(-c2c(O)[nH]c3cc(Br)ccc23)[nH]c2ccccc12	95.3
CCCCc1c(-c2ccc(OC)cc2)[nH]c2nccnc12	107
O=C1NC(=O)c2c1c1c3ccccc3[nH]c1c1[nH]c3cc(Br)ccc3c21	96.4
CN(C)S(=O)(=O)c1ccc2c(c1)/C(=C/c1cc3c([nH]1)CCCC3)C(=O)N2	97.6
c1ccc(-c2n[nH]c3c2oc2ccccc23)cc1	112
COc1cccc(-c2cc(=O)c3ccccc3o2)c1N	88.1
N#Cc1cnc2cnc(NCc3cccnc3)cc2c1Nc1ccc(F)c(Cl)c1	85.4
c1ccc2c(-c3ccncc3)c[nH]c2c1	96.7

Sample 3
Compound: CNCc1ccccc1-c1csc([C@@H](C)Nc2nc(C)nc3cc(OC)c(OC)cc23)c1
Concentration: 1 µM
target	assay	remaining binding
PIK3CA (Homo sapiens, UniProt P42336, C420R)	cell-free assay, competition with immobilised ligand	81%
FLT3 (Homo sapiens, UniProt P36888, F691L/ITD)	cell-free assay, competition with immobilised ligand	57%
BMX (Homo sapiens, UniProt P51813)	cell-free assay, competition with immobilised ligand	49%
EPHB6 (Homo sapiens, UniProt O15197)	cell-free assay, competition with immobilised ligand	98%
AXL (Homo sapiens, UniProt P30530)	cell-free assay, competition with immobilised ligand	93%
NEK7 (Homo sapiens, UniProt Q8TDX7)	cell-free assay, competition with immobilised ligand	100%
PNCK (Homo sapiens, UniProt Q6P2M8)	cell-free assay, competition with immobilised ligand	95%
ULK1 (Homo sapiens, UniProt O75385)	cell-free assay, competition with immobilised ligand	88%
EPHB4 (Homo sapiens, UniProt P54760)	cell-free assay, competition with immobilised ligand	99%
GAK (Homo sapiens, UniProt O14976)	cell-free assay, competition with immobilised ligand	88%
TNNI3K (Homo sapiens, UniProt Q59H18)	cell-free assay, competition with immobilised ligand	100%
AAK1 (Homo sapiens, UniProt Q2M2I8)	binding	95%
DYRK1A (Homo sapiens, UniProt Q13627)	cell-free assay, competition with immobilised ligand	88%
DCLK1 (Homo sapiens, UniProt O15075)	cell-free assay, competition with immobilised ligand	86%
SRC (Homo sapiens, UniProt P12931)	cell-free assay, competition with immobilised ligand	100%
TNK1 (Homo sapiens, UniProt Q13470)	cell-free assay, competition with immobilised ligand	64%
DDR1 (Homo sapiens, UniProt Q08345)	cell-free assay, competition with immobilised ligand	100%

Sample 4
Structure (SMILES): O=C(O)c1ccccc1Nc1ccccc1
Concentration: 10 µM
ANO1 del476-501/R541A: Anoctamin-1 (ANO1, Homo sapiens, UniProt Q5XXA6, del476-501/R541A)
Chain of UniProt Q5XXA6 (whole entry, unmodified, looked up): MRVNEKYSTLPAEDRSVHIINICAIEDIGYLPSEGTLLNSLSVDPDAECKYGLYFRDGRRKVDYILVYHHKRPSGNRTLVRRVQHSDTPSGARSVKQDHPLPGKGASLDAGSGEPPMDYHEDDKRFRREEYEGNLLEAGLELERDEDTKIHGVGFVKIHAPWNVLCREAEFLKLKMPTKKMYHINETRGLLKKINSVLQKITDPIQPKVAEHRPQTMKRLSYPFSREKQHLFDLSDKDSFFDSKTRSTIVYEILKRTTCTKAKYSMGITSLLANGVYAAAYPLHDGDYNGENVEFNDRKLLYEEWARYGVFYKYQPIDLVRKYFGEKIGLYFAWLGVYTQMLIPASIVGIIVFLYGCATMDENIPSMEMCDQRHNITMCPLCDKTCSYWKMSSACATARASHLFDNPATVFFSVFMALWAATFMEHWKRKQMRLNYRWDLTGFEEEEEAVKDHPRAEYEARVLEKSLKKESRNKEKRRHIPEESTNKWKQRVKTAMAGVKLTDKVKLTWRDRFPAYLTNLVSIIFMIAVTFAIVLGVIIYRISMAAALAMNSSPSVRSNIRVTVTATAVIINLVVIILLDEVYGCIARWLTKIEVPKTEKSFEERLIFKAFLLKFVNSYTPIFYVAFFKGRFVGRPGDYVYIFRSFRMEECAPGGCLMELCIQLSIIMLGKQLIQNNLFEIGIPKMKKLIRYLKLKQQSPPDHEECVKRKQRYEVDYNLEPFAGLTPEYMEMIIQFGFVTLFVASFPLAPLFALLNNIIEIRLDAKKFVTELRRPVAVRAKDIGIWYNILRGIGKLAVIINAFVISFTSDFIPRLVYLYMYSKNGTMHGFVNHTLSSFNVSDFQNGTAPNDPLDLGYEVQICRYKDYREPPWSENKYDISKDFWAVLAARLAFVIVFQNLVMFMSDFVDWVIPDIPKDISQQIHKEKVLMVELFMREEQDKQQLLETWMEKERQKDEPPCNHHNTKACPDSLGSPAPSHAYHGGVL
ANO1 del476-501/F628A/F803A: Anoctamin-1 (ANO1, Homo sapiens, UniProt Q5XXA6, del476-501/F628A/F803A)
ANO1 del476-501: Anoctamin-1 (ANO1, Homo sapiens, UniProt Q5XXA6, del476-501)
target	assay	system	setting	scale	normalized current
ANO1 del476-501/R541A	chloride current, inhibitor	human	pore mutant R515A	–	1.01
ANO1 del476-501/F628A/F803A	chloride current, inhibitor	human	mutant, non-pore, F602A/F777A	–	0.784
ANO1 del476-501/F628A/F803A	chloride current, inhibitor, whole-cell patch clamp	–	F602A/F777A non-pore mutant	–	0.792 and 0.882 and 0.736 and 0.745 and 0.83 and 0.72
ANO1 del476-501	chloride current, inhibitor	human	wild type	–	0.763
ANO1 del476-501/R541A	chloride current, inhibitor, whole-cell patch clamp	–	R515A pore mutant	–	1.05 and 0.966 and 1.01 and 1.02 and 0.992
ANO1 del476-501	ion current, patch clamp	–	–	baseline: before drug	0.696 and 0.813 and 0.849 and 0.801 and 0.785 and 0.683 and 0.795 and 0.682
